{"data": "Published values pooled from the literature", "target": "Sodium-dependent dopamine transporter (Slc6a3, Rattus norvegicus, UniProt P23977)", "note": "Compare with care: the assays were run in different laboratories.", "UniProt P23977, sequence (whole entry, looked up)": "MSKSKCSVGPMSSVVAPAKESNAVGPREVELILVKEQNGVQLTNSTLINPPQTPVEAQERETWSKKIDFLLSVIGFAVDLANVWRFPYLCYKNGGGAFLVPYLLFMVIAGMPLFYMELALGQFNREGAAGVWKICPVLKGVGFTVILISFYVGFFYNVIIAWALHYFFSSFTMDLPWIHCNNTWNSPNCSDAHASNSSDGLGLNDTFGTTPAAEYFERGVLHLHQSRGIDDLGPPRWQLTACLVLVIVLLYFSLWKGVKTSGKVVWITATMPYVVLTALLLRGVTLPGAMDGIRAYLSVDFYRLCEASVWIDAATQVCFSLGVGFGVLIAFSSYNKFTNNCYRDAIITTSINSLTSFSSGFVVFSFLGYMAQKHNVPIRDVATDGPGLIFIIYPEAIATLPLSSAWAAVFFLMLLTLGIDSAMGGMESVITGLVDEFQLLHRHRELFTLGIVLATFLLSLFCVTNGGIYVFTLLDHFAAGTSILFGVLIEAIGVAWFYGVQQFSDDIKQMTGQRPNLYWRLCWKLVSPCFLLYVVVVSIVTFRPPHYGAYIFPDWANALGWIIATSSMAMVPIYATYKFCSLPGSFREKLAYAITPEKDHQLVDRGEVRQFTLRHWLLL"}
{"Compound": "CCCC(NCC)C(=O)c1ccc2c(c1)OCO2 (centres unmarked)", "assay": "dopamine uptake", "system": "rat brain synaptosomes", "scale": "reference: SERT IC50 over DAT IC50, higher = DAT selective", "measurement": "selectivity ratio", "result": 10.4}
{"Compound": "CC(N)Cc1ccc2c(c1)OCO2 (racemic)", "assay": "[3H]MPP+ release, releaser", "system": "rat brain synaptosomes", "scale": "reference: DAT over NET, higher = more DAT-selective", "measurement": "selectivity ratio", "result": 0.43}
{"Compound": "CNC(C)C(=O)c1ccc(C(F)(F)F)cc1 (centres unmarked)", "assay": "substrate release", "system": "rat brain synaptosomes", "scale": "reference: SERT EC50 over target EC50", "measurement": "selectivity ratio", "result": 0.07}
{"Compound": "O[C@H](CN1CC[C@H](CCOC(c2ccccc2)c2ccccc2)[C@@H](O)C1)c1ccccc1", "assay": "dopamine uptake, inhibitor", "system": "rat striatum", "setting": "together with: [3H]dopamine", "measurement": "Ki", "result": "1.06 nM"}
{"Compound": "CNC(C)C(=O)c1ccc(Cl)cc1 (centres unmarked)", "assay": "substrate release", "system": "rat brain synaptosomes", "scale": "reference: SERT EC50 over target EC50", "measurement": "selectivity ratio", "result": 3.4}
{"Compound": "O[C@@H](CN1CC[C@H](CCOC(c2ccccc2)c2ccccc2)[C@@H](O)C1)c1ccc(F)cc1", "assay": "dopamine uptake, inhibitor", "system": "rat striatum", "setting": "together with: [3H]dopamine", "measurement": "Ki", "result": "2.44 nM"}
{"Compound": "CC(N)Cc1ccc2occc2c1 (centres unmarked)", "assay": "[3H]MPP+ release, releaser", "system": "rat brain synaptosomes", "scale": "reference: DAT over SERT, higher = more DAT-selective", "measurement": "selectivity ratio", "result": 0.61}
{"Compound": "Cc1ccc([C@H]2OC(N)=N[C@H]2C)cc1 (relative stereo)", "assay": "releaser", "system": "rat brain synaptosomes", "scale": "reference: DAT over SERT", "measurement": "selectivity ratio", "result": 4.3}
{"note": "Some of these lines once more:"}
{"Compound": "CC(N)Cc1ccc2c(c1)OCO2 (racemic)", "assay": "[3H]MPP+ release, releaser", "system": "rat brain synaptosomes", "scale": "reference: DAT over NET, higher = more DAT-selective", "measurement": "selectivity ratio", "result": 0.43}
